Measurements collected from several papers.
“And” joins repeats or separate records; there may be more than shown. ± gives the spread as reported.

Structure (SMILES) | cell line | test | system | conditions | how to read | quantity | result
CCN(Cc1cccnc1)c1ccc(CO)c(Cl)c1 | RBE | cell viability, CellTiter-Glo |  |  |  | IC50 | 0.37 µM
NC(=O)NOCCCCCCCCCC[P+](c1ccccc1)(c1ccccc1)c1ccccc1.O=C([O-])C(F)(F)F | HCT-116 | cell growth, live-cell imaging |  | 0.3 µM, control at 90% confluence |  | cell confluence | 84.7%
CCCCc1oc2ccc(NS(C)(=O)=O)cc2c1C(=O)c1ccc(OCCCN(CCCC)CCCC)cc1 | human embryonic stem cell aggregates | mRNA level, microarray, measured: RIPPLY1 |  | 0.5 µM, 120 h | baseline: untreated, down-regulated | fold change | 2.3 fold
CCc1cnc(N2CCC(c3nc(COc4ccc(-n5cnnn5)cc4)cs3)CC2)nc1 | HEK293T | RNA-seq, measured: HSPH1 mRNA |  | 10 µM, 6 h | baseline: vehicle | log2 fold change | -0.172
C[C@H](Nc1ccc2c(c1)OCCn1cc(N3C(=O)OC[C@H]3C(F)F)nc1-2)C(N)=O | ESS-1 | cell growth, CellTiter-Glo |  | 120 h |  | Hill coefficient GR curve | 0.326
Cc1cnc(NC2CCOCC2)nc1-n1cnc(C(=O)NC(CN)c2cc(F)cc(Cl)c2)c1 (centres unmarked) | Rec1 | flow cytometry |  | 1 µM, 24 h |  | sub-G0 cells | 1.7%
COc1nc(NCc2cn(-c3ccc(C(=O)Nc4ccccc4)cc3)nn2)nc(OC)n1 | HCT-116 | flow cytometry |  | IC50, 24 h |  | cell cycle phase %S | 39.2%
Nc1ncnc2c1ncn2[C@@H]1O[C@H](CO)[C@@H](O)[C@H]1O | activated human T cells | measured: dihydroorotate |  | 50 µM | baseline: DMSO | log2 fold change | 6.6 and 7.2 and 6.7
COc1c(Cl)cc2c([nH]c3cnccc32)c1NC(=O)c1cccnc1C | hiPSC-derived cardiomyocytes (iCell) | impedance |  | concentration not given, 24 h | baseline: control | cell index | 98.5%
O=C(/C=C/C=C/C=C/C1CCCCC1)NC1=C[C@@](O)(/C=C/C=C/C=C/C(=O)NC2=C(O)CCC2=O)[C@@H]2O[C@@H]2C1=O | NCI-H1373 | cell growth, CellTiter-Glo |  | 78 h |  | GI50 | > 30 µM
OCc1ccc(-c2cn(Cc3ccccc3)c3ccccc23)o1 | RBE | cell viability, CellTiter-Glo |  |  |  | IC50 | 7.12 µM
C=Cc1c2[n-]c(c1C)/C=c1\[n-]/c(c(C)c1C=C)=C\c1[n-]c(c(CCC(=O)O)c1C)/C=c1\[n-]c(c(C)c1CCC(=O)O)=C2.[Sn+4] | SH-SY5Y | RNA-seq, measured: TMC6 mRNA |  | 5 µM, 5 h | baseline: untreated cells | fold change | 1.64
Cc1[nH]nc2ccc(-c3cncc(OC[C@@H](N)Cc4ccccc4)c3)cc12 | hiPSC-derived cardiomyocytes (iCell) | impedance (xCELLigence Cardio) |  | concentration not given, 2 h | baseline: control | beat rate | 110%
COc1ncccc1Cn1nc(-c2ccc(CO)o2)c2ccccc21 | RBE | cell viability, CellTiter-Glo |  |  |  | IC50 | 0.23 µM
CCCCCCOC(=O)[C@]1(O)C[C@@H]2O[C@@]1(C)n1c3ccccc3c3c4c(c5c6ccccc6n2c5c31)C(=O)NC4 | SK-OV-3 | ATP | 3D gellan gum culture | 0.1 µM, 4 days | baseline: untreated | relative cell number | 82.4%
COc1ccc(-n2nc(C(C)=O)s/c2=N\N=C(/C)c2ccc(NC(=O)c3ccc(C)cc3)cc2)cc1 | MCF7 |  |  | 0.312 µM |  | viability | 17.7%
CCCCN1CCN(c2ccc3[nH]c(-c4ccc5[nH]c(-c6ccc(OCC)c(OCC)c6)nc5c4)nc3c2)CC1 | SF-295 | SRB |  | 10 µM, 48 h |  | growth percent | -67.8%
C=CCn1c(=O)c2cnc(Nc3ccc(N4CCN(C)CC4)cc3)nc2n1-c1ccc2c(n1)[C@@](O)(CC)CC2 | NCI-H1048 | flow cytometry |  | concentration not given |  | EdU-negative S phase cells | 24.6%
Cn1cnc2c(F)c(Nc3ccc(Br)cc3F)c(C(=O)NOCCO)cc21 | HCT-116 |  |  | 0.07813 µM, 72 h |  | viability | 103%
Cc1nn(-c2nc3c(F)cc(F)cc3s2)c(O)c1C(c1ccc(C(F)(F)F)cc1)c1c(C)nn(-c2nc3c(F)cc(F)cc3s2)c1O | RAW-ISG | RT-qPCR |  | 10 µM, 312 h, unit not given, added: HT-DNA | baseline: DMSO | IFNB1 mRNA level | 0.0873 and 0.162 and 0.154
CC(C)NCC(O)c1ccc(O)c(O)c1 (centres unmarked) | mouse ventricular cardiomyocytes |  |  | dose not given, 0.139 s |  | sarcomere length | 1.59 µm
CCn1c2ccc(CNCCOCCOCCOCCC(=O)NCCOc3ccc(CCc4nc5cc(-c6c(C)noc6C)ccc5n4CCN4CCOCC4)cc3F)cc2c2ccc(-c3cc(C)cs3)cc21 | NCI-H1299 expressing p53 Y220C | RT-qPCR |  | 3 µM, 24 h | baseline: DMSO | GADD45A mRNA level | increased
Cc1n[nH]c2nc(-c3ccc(Cl)cc3)c3c(NC(=O)c4ccccc4)nnc-3n12 | SF-295 | SRB |  | 10 µM, NCI60 single-dose screen | baseline: untreated | cell growth | 102%
Cc1cc(N2CCc3c(c(C)nn3CC34CCC(NC(=O)[C@@H]5COCCN5)(CC3)CC4)C2)c2cnn(C)c2n1 | human PBMC | qRT-PCR, measured: MX1 mRNA |  | 100 nM, added: ssRNA |  | inhibition | 96 ± 1%
NC(=O)NOCCCCCCCCCCCCCCCCCCCC[P+](c1ccccc1)(c1ccccc1)c1ccccc1.O=C([O-])C(F)(F)F | HCT-116 | cell growth, live-cell imaging |  | 0.15 µM, control at 90% confluence |  | cell confluence | 86.6 ± 3.59%
COc1ccc(COc2ccc(Cc3cnc(N)nc3N)cc2OC)cc1 | hiPSC-derived cardiomyocytes (iCell) | impedance |  | concentration not given, 24 h | baseline: control | cell index | 98.1%
CCn1cc(-c2cc(Cn3ccoc3=N)cc3c2CCN([C@@H](C)c2cc(OC)ccn2)C3=O)c(C(F)(F)F)n1 | ASPC1 | cell growth, inhibitor |  | 120 h |  | EC50 | 0.00826 µM

Structure (SMILES) | cell line | test | system | conditions | how to read | quantity | result
CCN(Cc1c(F)cccc1C(F)(F)F)c1ccc(CO)c(Cl)c1 | RBE | cell viability, CellTiter-Glo |  |  |  | IC50 | 0.15 µM
Cc1cc(Br)cc2c1NC(=O)/C2=C1\SC(=S)NC1=O | NSCLC cells | MTT |  | concentration not given, 48 h |  | viability loss | 20 to 50%
CCn1cc(-c2cc(Cn3ccnc3)cc3c2CCN([C@H](c2cc(OC)ccn2)C2CC2)C3=O)c(C(F)(F)F)n1 | BT-474 | cell growth, inhibitor |  | 120 h |  | EC50 | 31.2 µM
CCN(Cc1ccccc1Cl)c1ccc(CO)c(Cl)c1 | RBE | cell viability, CellTiter-Glo |  |  |  | IC50 | 0.23 µM
Cc1c(C(=O)O)ccc2c3n(nc12)[C@@H]1[C@H](C3)N(CC2CC2)[C@@]2(C(=O)Nc3cc(Cl)ccc32)[C@H]1c1cccc(Cl)c1F | LS180 (MDM2 non-amplified) | cell growth, alamarBlue |  | 120 h |  | GI50 | 0.016 µM
CC1(C)CCC(CN2CCN(c3ccc(C(=O)NS(=O)(=O)c4ccc(NCC5CCOCC5)c([N+](=O)[O-])c4)c(Oc4cnc5[nH]ccc5c4)c3)CC2)=C(c2ccc(Cl)cc2)C1 | THP-1 | annexin V/PI flow cytometry, measured: annexin V-/PI- |  | 3.2 µM, 24 h |  | viable cells | 85.7%
NC(=O)NOCCCCCCCCCCCCCC[P+](c1ccccc1)(c1ccccc1)c1ccccc1.O=C([O-])C(F)(F)F | HCT-116 | cell growth, live-cell imaging |  | 3 µM, control at 90% confluence |  | cell confluence | 3.42%
Cc1cccc(-c2noc(CCC(=O)Nc3ccccc3)n2)c1 | BV-2 | measured: caspase-8 |  | 30 nM, added: high glucose | baseline: high glucose | protein level | decreased
CC(=O)c1nn(-c2ccc(Cl)cc2)/c(=N/N=C(\C)c2ccc(NC(=O)c3ccc(C)cc3)cc2)s1 | MCF7 |  |  | 0.312 µM |  | viability | 59.8%
Clc1nc(NCc2ccco2)c2[nH]cnc2n1 | iPSC-derived cardiomyocytes | RNA-seq, measured: BCL11A chr2 exon ending 60468833 |  | unit not given | baseline: DMSO minus compound | ΔPSI | -0.306
O=P1(C2CCCCC2)CCCCC1 | SW-620 | annexin V/PI flow cytometry |  | IC50, 72 h |  | necrotic cells | 0.85%
COc1cnc2cccc(N3CCc4c(cc(Cn5ccnc5C)cc4-c4cn(C)nc4C(F)(F)F)C3=O)c2c1 | NCI-H1373 | cell growth, inhibitor |  | 120 h |  | EC50 | > 30 µM
NC(=O)NOCCCCCCCCCCCC[P+](c1ccccc1)(c1ccccc1)c1ccccc1.O=C([O-])C(F)(F)F | HCT-116 | cell growth, live-cell imaging |  | 7.5 µM, control at 90% confluence |  | cell confluence | 2.27 ± 0.16%
COc1cc2c(Oc3ccc(NC(=O)C4(C(=O)Nc5ccc(F)cc5)CC4)cc3F)ccnc2cc1OCCCN1CCOCC1 | hiPSC-derived cardiomyocytes (iCell) | impedance (xCELLigence Cardio) |  | concentration not given, 2 h | baseline: control | beat rate | 69.2%
C[C@H](CCC(=O)NCCS(=O)(=O)O)[C@H]1CC[C@H]2[C@@H]3CC[C@@H]4C[C@H](O)CC[C@]4(C)[C@H]3CC[C@]12C | human PKD renal epithelial cells | cell confluence |  | 20 µM, 48 h | baseline: untreated | proliferation increase | 60%
NC(=O)NO | HCT-116 | cell growth, live-cell imaging |  | 1000 µM, control at 90% confluence |  | cell confluence | 5.4 ± 1.02%
CCN(CC)CCCC(C)Nc1ccnc2cc(Cl)ccc12 (centres unmarked) | hiPSC-derived cardiomyocytes | L-type calcium current, perforated patch clamp |  | 5 µM | baseline: initial current | relative peak current | 0.91 and 0.87 and 0.89 and 0.7
C=C1CC(C(=O)Nc2cc(C(=O)NC)cc(-c3ccc(C(C)=O)s3)c2OC)C1 | BV-2 | fluorescent latex beads |  | 25 µM, 1 h | baseline: control | phagocytosis increase | ~46%
O=[N+]([O-])c1cc(I)c(O)c(C=NNc2ccccc2)c1 | HCT-116 | annexin V |  | IC50 |  | late apoptotic or dead cells | 36.4%
CC(O)c1ccc(-c2nn(Cc3ccccc3)c3ccccc23)o1 (centres unmarked) | RBE | cell viability, CellTiter-Glo |  |  |  | IC50 | 6.9 µM
Cc1nn(-c2ccccc2C(C)C)c(C)c1C(=O)Nc1ccc2ccccc2n1 | Wnt-HEK293 | Wnt/β-catenin signalling, inhibitor, luciferase reporter |  | 1 µM |  | inhibition | > 70%
Cn1cc(-c2ccc(-c3cncc(Cl)c3N3CCC4(CCNC4=O)CC3)cc2)cn1 | COLO 205 | gene expression, microarray, measured: SOX8 mRNA |  | concentration not given, 2 h | baseline: untreated cells | log2 fold change | 2.42
Nc1cccc2c1C(=O)N(C1CCC(=O)NC1=O)C2=O (centres unmarked) | RPMI-8226 | flow cytometry, measured: CD21 |  | concentration not given | baseline: comparator compound alone | surface marker level | 260%
Cn1c(Nc2nc3ccc(C(F)(F)F)cc3s2)nc2cc(C(=O)NCCOCCO)ccc21 | SH-SY5Y | RNA-seq, measured: PTGS1 mRNA |  | 5 µM, 5 h | baseline: untreated cells | fold change | 4.03
Cc1cccc(-c2[nH]c(CNc3ccccc3F)nc2-c2ccc3ncnn3c2)n1 | CD8+ T cells from myeloma patient | ELISA | human | 0.5 µM |  | TNF-alpha production | 1.02% and 0.994% and 1.17% and 0.972% and 1.15% and 1.12%
CC/C(=N\NC(=O)NCc1cccc(O)c1)c1ccc(O)c(C)c1O | SK-OV-3 | Western blot, measured: phospho-YAP |  | 10 µM, 1 h, 2D culture, unit not given | baseline: total YAP | protein level | 0.38 ± 0.26

Some of these lines once more:
Structure (SMILES) | cell line | test | system | conditions | how to read | quantity | result
NC(=O)NOCCCCCCCCCCCCCCCCCCCC[P+](c1ccccc1)(c1ccccc1)c1ccccc1.O=C([O-])C(F)(F)F | HCT-116 | cell growth, live-cell imaging |  | 0.15 µM, control at 90% confluence |  | cell confluence | 86.6 ± 3.59%
COc1ccc(COc2ccc(Cc3cnc(N)nc3N)cc2OC)cc1 | hiPSC-derived cardiomyocytes (iCell) | impedance |  | concentration not given, 24 h | baseline: control | cell index | 98.1%
CCn1cc(-c2cc(Cn3ccoc3=N)cc3c2CCN([C@@H](C)c2cc(OC)ccn2)C3=O)c(C(F)(F)F)n1 | ASPC1 | cell growth, inhibitor |  | 120 h |  | EC50 | 0.00826 µM
